Earlier results that unrelated publications cite.
± marks the error that the study gave.
Sequence of UniProt Q15759 (whole entry, looked up): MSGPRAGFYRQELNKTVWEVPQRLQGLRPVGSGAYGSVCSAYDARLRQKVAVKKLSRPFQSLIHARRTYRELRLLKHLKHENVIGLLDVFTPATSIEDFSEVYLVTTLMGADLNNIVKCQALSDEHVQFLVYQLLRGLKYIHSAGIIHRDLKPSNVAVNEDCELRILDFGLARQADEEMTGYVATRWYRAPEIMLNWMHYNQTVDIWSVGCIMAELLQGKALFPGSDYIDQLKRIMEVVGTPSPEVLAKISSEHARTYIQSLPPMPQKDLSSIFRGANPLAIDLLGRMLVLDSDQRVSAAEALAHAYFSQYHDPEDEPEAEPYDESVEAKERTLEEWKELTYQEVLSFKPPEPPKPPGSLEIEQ

COCCc1ccc(OCC(O)CNC(C)C)cc1 (stereo not drawn)  Tmax (human fasted; 400 mg single dose, mean): 13.5 h
COc1cc(N2CCC3(CCN(C)CC3)CC2)ccc1Nc1ncc(Cl)c(Nc2ccccc2P(C)(C)=O)n1  Tmax (human; oral): ~2 h
Cc1nc(-c2ccc(OCC(C)C)c(C#N)c2)sc1C(=O)O  Tmax (human; oral, 120 mg, fasting): 1.7 ± 1.1 h
CO[C@@H](C)Cn1c(=O)n(C)c2cnc3ccc(-c4cncc(C(C)(C)O)c4)cc3c21  Tmax (human; oral): 1 to 2 h
Cc1ccccc1CN1C(=O)C2=C(CCN(Cc3ccccc3)C2)N2CCN=C12  Tmax (human; oral, 625 mg, fasted, single dose, without rabeprazole): 1 h
Cc1cc(C)c(CNC(=O)c2cc(Cl)c3c(c2C)O[C@@](C)([C@H]2CC[C@H](N(C)C)CC2)O3)c(=O)[nH]1  Tmax (human, plasma; oral, 100 mg single dose, study, median): 4 h
Cc1cccc(F)c1N1CCC(N2Cc3cn(CC(C)(F)F)nc3N(Cc3ccccc3C(F)(F)F)C2=O)CC1  Tmax (human, fed): 3 h
CC1(C)CCC(CN2CCN(c3ccc(C(=O)NS(=O)(=O)c4ccc(NCC5CCOCC5)c([N+](=O)[O-])c4)c(Oc4cnc5[nH]ccc5c4)c3)CC2)=C(c2ccc(Cl)cc2)C1  Tmax (human; oral, fed, median): 6 h
CNCc1cc(-c2ccccc2F)n(S(=O)(=O)c2cccnc2)c1  Tmax (human, plasma; 30 mg single dose, observed clinical data): 1.5 h
C=CC(=O)Nc1cc(Nc2nccc(-c3cn(C)c4ccccc34)n2)c(OCC(F)(F)F)nc1N(C)CCN(C)C  Tmax (refers to: total radioactivity; human; oral): 0.5 h
O=C1[C@H](CC[C@H](O)c2ccc(F)cc2)[C@@H](c2ccc(O)cc2)N1c1ccc(F)cc1  Tmax (human; dose not given, together with: rifampin 18): ~3 h
Nc1cc(C(F)(F)F)c(-c2nc(N3CCOCC3)nc(N3CCOCC3)n2)cn1  remaining activity (Mitogen-activated protein kinase 11 (MAPK11, Homo sapiens, UniProt Q15759); enzyme activity; 10 µM; relative to: untreated): 95%
CC(C)[C@H](C(=O)Nc1ccc(C(=O)NO)cc1)c1ccccc1  Tmax (human; oral, 20 mg): 4 h
C[C@H]1CO[C@@H]2Cn3cc(C(=O)NCc4ccc(F)cc4F)c(=O)c(O)c3C(=O)N12  Tmax (human; oral tablet, median fed): 4 h
O=C(c1cc(Cc2n[nH]c(=O)c3ccccc23)ccc1F)N1CCN(C(=O)C2CC2)CC1  Tmax (human; oral tablet, 100 mg twice daily, multiple dose): 2 h
COc1cc2c(Oc3ccc4[nH]c(C)cc4c3F)ccnc2cc1OCC1(N)CC1  Tmax (human; 16 mg single dose): 11 ± 8.9 h
CCN1CCN(Cc2ccc(Nc3ncc(F)c(-c4cc(F)c5nc(C)n(C(C)C)c5c4)n3)nc2)CC1  Tmax (human; 100 mg twice daily, multiple dose, tablet): 6.86 h
CCCn1cc(C)c2c(=O)[nH]c(-c3cc(S(=O)(=O)N4CCN(CC)CC4)ccc3OCC)nc21  Tmax (human; oral, median): 0.5 to 1 h

Some of these lines once more:
CCN1CCN(Cc2ccc(Nc3ncc(F)c(-c4cc(F)c5nc(C)n(C(C)C)c5c4)n3)nc2)CC1  Tmax (human; 100 mg twice daily, multiple dose, tablet): 6.86 h
CCCn1cc(C)c2c(=O)[nH]c(-c3cc(S(=O)(=O)N4CCN(CC)CC4)ccc3OCC)nc21  Tmax (human; oral, median): 0.5 to 1 h
